Measured values collected from several papers.
Parts stem from different laboratories: compare values within a part only. Positions count from the first letter of the parent shown.

Set 1 — target: CCNB3, cyclin fold, Cln2 fusion (human); technique: yeast growth competition, sequencing; medium: yeast; notes: weak parent motif; reference: not given; reading: higher = stronger binding
Starting sequence: WEE1 docking peptide (human); HKTFRKLRLFDTP
| Variant | normalised enrichment score |
| --- | --- |
| HKTFRKLRLRDTP [F10R] | -0.234 |
| HKTFRKLRLFDTL [P13L] | -0.104 |
| HKTFTKLRLFDTP [R5T] | 0.332 |
| HKTFRKLRNFDTP [L9N] | 0.0803 |
| HKTFRKLRLFDNP [T12N] | 0.626 |
| HKRFRKLRLFDTP [T3R] | -0.118 |
| HKTFRKLRHFDTP [L9H] | -0.164 |
| HKTFRKLRLFDTE [P13E] | -0.0631 |
| HKTFRKLRCFDTP [L9C] | -0.185 |
| HKTFRKGRLFDTP [L7G] | 0.453 |
| HKFFRKLRLFDTP [T3F] | 0.0486 |
| TKTFRKLRLFDTP [H1T] | 0.518 |
| HKTFRKPRLFDTP [L7P] | 0.235 |
| HKTFRNLRLFDTP [K6N] | 0.386 |
| HKTFRKLGLFDTP [R8G] | 0.316 |
| HKTFRKNRLFDTP [L7N] | -0.0397 |
| HKTFRKLRLFDTH [P13H] | -0.415 |
| HKTFYKLRLFDTP [R5Y] | -0.202 |
| HKTFRKLRLFDCP [T12C] | 0.0879 |
| GKTFRKLRLFDTP [H1G] | 0.00945 |
| HKTFRKLRLFDTM [P13M] | 0.534 |
| HKTFCKLRLFDTP [R5C] | -0.253 |
| HKTFRKLRLFDVP [T12V] | 0.583 |

Set 2 — technique: RNA Bind-n-Seq; form: RNA; medium: in vitro; concentration: 365 nM; reference: no-protein control; reading: higher = stronger binding
Target: RNA binding protein fox-1 homolog 2, RRM domain, GST-SBP tag (RBFOX2, Homo sapiens, UniProt O43251-10, residues 100-194)
Notes: natural RNA segment, single round, ends assumed
Target sequence (chain): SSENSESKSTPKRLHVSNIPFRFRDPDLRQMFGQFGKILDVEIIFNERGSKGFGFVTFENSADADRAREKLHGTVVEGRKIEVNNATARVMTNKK
| Sequence | RBNS enrichment (R) |
| --- | --- |
| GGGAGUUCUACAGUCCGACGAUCCCAUAGUUUUUAAUCCCAAAGUUAUUUAAACAUCAGUAAGACAAGGUACCACUUCAUACAGUGAAAAGUGGAAUCUACAGAUAUAAAGCAGUUGAGGAAAAAAGACAACAUGGAAUUCUCGGGUGCCAA | 0.367 |
| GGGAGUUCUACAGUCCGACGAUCCAGGACACAGGAAGCUCAGGCGCAGAGGCGGAGGAGCAAGCUGGCACCGAGAAGACAAGGGAAGGUCUUCCCCCCAGAGGCACAUUCCUGUCCGUCUUUCUGCUGCACACUGGAAUUCUCGGGUGCCAA | 0.994 |
| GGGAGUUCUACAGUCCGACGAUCUCAAGGCCCCAGUGGCAACCAUGUGGUAAGUGGCCAACCAAGCCCUACCCAGGGUCACCCAACACACUCUGCCUUGAGCCUCUCCUCAGGGUCUAUUCCUUGCGUGGAUUUGGAAUUCUCGGGUGCCAA | 0.343 |
| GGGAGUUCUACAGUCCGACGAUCGUUCAAAACCAUGUUCCAGCCUCUGGGCCAACUCAGCCACCGGUGGUGAGCUCCACAAAUGAGGGCUCCCCAUCCCCACCAGAGCCGACUGGCAAGGGCAGCCUAGACACUGGAAUUCUCGGGUGCCAA | 0.404 |
| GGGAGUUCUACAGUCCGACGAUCCACCAAGGUCACAGGAGCAUUGCGUCGCUGAUGGGGUUGAAGUUUGGUUUGGUUCUUGUUUCAGCCCAAUAUGUAGAGAACAUUUGAAACAGUCUGCACCUUUGAUACGGUGGAAUUCUCGGGUGCCAA | 0.954 |
| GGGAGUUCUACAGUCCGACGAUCCCAGUAUGUGUCUUCUUCUCCAGAUAGUGAAAAAGGUGUCCAGAUAAACCCACCUAAGUGAAAUGGCCAUCCUCUAAACUGGGUACCUCACUGCACAGCUUCUAGGUAGCUGGAAUUCUCGGGUGCCAA | 0.401 |
| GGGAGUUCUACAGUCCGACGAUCAGUCAGGGCAGGGCUCCAGGGGAUAACAGGUGUCCUGCUUCUCCUUUGGCAAUGCAAAAUGACUCCUGACUGUUCCAAAUACUGAAAAGAAGUCUGCCUCUGAGUUACAGUGGAAUUCUCGGGUGCCAA | 0.241 |
| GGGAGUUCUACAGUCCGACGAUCCUAAUCCCUAAAAUAGUUAGAUCUUUGUAAAUGCAUAUUAAAUAAUAAAGUAUGACCCACAUUACUUUUUAUGGGUGAAAAUAAGACAAAAAUAAUAGUUUUAGUGAGGAUGGAAUUCUCGGGUGCCAA | 0.758 |
| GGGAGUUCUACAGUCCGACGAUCUUAGCAACUUAGAGUUGGUGAGUUUAAUCUUCAGUCAUACCAGCUCCAAGAGAUGAGGCCUCAGUCCAGAACCCAUCUUCAUACAAAAGCUUCAGUAGCCUGUAGGCGGCUGGAAUUCUCGGGUGCCAA | 0.272 |

Set 3 — technique: protein binding microarray; form: double-stranded DNA, one strand shown; medium: in vitro; concentration: not given; reference: not given; reading: higher = stronger binding
Target: Histone acetyltransferase KAT6A, both winged helices, GST fusion (KAT6A, Homo sapiens, UniProt Q92794, residues 1-181)
Notes: 8-mer, flanks averaged, mean of 2 arrays, mostly near background
Residues (chain): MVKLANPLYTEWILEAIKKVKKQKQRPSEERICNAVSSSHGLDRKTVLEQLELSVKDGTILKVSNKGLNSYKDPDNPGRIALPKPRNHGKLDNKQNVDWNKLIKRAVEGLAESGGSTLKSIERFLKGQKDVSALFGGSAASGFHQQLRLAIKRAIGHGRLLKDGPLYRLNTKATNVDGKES
| Sequence | E-score |
| --- | --- |
| CCCTAGTC | -0.238 |
| GAGCAACC | -0.232 |
| CTTACTGA | -0.069 |
| ACGGTTCA | 0.0774 |
| CCCAACGA | -0.0732 |
| CAGAAAAC | -0.12 |
| TCGAAGAA | -0.0966 |
| AGCTTACC | -0.0627 |
| GTGTACAA | 0.0705 |
| GCCCTGAC | -0.0831 |
| CGTTAAAG | 0.0815 |
| GCCCAAAC | -0.0157 |
| AGGTCTAG | -0.0744 |
| AGTTTCTG | -0.103 |
| CGGCTAGC | 0.229 |
| CACAAGGC | -0.11 |
| CATAAACG | 0.104 |
| CGTACAAC | 0.157 |
| CCCTGCCA | -0.0993 |
| GTACTGAA | 0.0355 |
| AGGACGAG | -0.183 |
| ACAGACGC | 0.123 |

Set 4 — technique: aptamer microarray, sandwich; form: DNA with 2'F-ANA; medium: in vitro; concentration: 200 nM; together with: Cy3 exosite-II aptamer, 400 nM; reading: higher = stronger binding; sequence: GGTTGGTGTGGTTGG
Target: Prothrombin, mature alpha-thrombin (F2, Homo sapiens, UniProt P00734)
Notes: whole 15-mer aptamer, many near background
| Modification | mean fluorescence intensity [a.u.] |
| --- | --- |
| 2'F-ANA at 1 3 4 7 8 10 11 | 65.9 |
| 2'F-ANA at 3 5 10 14 | 73.6 |
| 2'F-ANA at 1 3 6 10 11 12 13 14 15 | 59.7 |
| 2'F-ANA at 1 3 4 5 7 8 10 11 12 13 14 | 53.4 |
| 2'F-ANA at 5 6 9 10 14 15 | 84.1 |
| 2'F-ANA at 1 3 5 6 10 11 12 13 | 51.7 |
| 2'F-ANA at 1 3 5 8 9 10 12 13 14 15 | 48.8 |
| 2'F-ANA at 5 6 7 10 13 15 | 46.7 |
| 2'F-ANA at 1 3 4 6 8 9 10 11 13 14 | 51.5 |
| 2'F-ANA at 1 3 4 8 9 14 | 66 |
| 2'F-ANA at 3 4 5 6 7 8 9 14 15 | 49.7 |
| 2'F-ANA at 1 2 6 7 8 9 13 14 | 109 |
| 2'F-ANA at 1 3 5 7 11 12 14 | 48.4 |
| 2'F-ANA at 2 4 13 15 | 264 |
| 2'F-ANA at 2 9 10 13 14 15 | 78.5 |
| 2'F-ANA at 2 3 4 5 6 8 9 12 13 15 | 109 |
| 2'F-ANA at 1 3 7 8 9 13 14 15 | 179 |
| 2'F-ANA at 3 4 7 15 | 869 |
| 2'F-ANA at 2 6 9 12 14 15 | 129 |
| 2'F-ANA at 2 4 6 10 12 13 | 94.7 |
| 2'F-ANA at 1 2 5 7 8 9 10 12 | 47.7 |
| 2'F-ANA at 1 4 8 11 12 13 14 | 56.2 |
| 2'F-ANA at 2 4 5 6 8 9 11 12 13 15 | 72.3 |
| 2'F-ANA at 1 4 5 6 7 8 9 10 12 13 14 | 65.1 |
| 2'F-ANA at 1 3 6 7 10 12 15 | 106 |

Some of these lines once more (set 3):
| Sequence | E-score |
| --- | --- |
| GAGCAACC | -0.232 |
| CTTACTGA | -0.069 |
| ACGGTTCA | 0.0774 |
| CCCAACGA | -0.0732 |
| CAGAAAAC | -0.12 |
| TCGAAGAA | -0.0966 |
